Assay results gathered from unrelated publications.
Parts stem from different laboratories: compare values within a part only. Changes are numbered by the printed parent chain.

Series 1
Target: Prothrombin, mature alpha-thrombin (F2, Homo sapiens, UniProt P00734)
Technique: aptamer microarray, sandwich
Form: DNA with 2'F-ANA
Matrix: in vitro
Tested at: 200 nM
Notes: whole 15-mer aptamer, many near background
Together with: Cy3 exosite-II aptamer, 400 nM
Direction: higher = stronger binding
Sequence: GGTTGGTGTGGTTGG
Modification	mean fluorescence intensity [a.u.]
2'F-ANA at 1 3 6 7 15	242
2'F-ANA at 1 3 5 6 7 9 11 13 15	49.6
2'F-ANA at 1 6 7 9 10 11	52.4
2'F-ANA at 2 3 8 9 12 13 14	461
2'F-ANA at 1 2 3 4 6 9 10 11 14 15	50.1
2'F-ANA at 3 4 5 6 7 8 9 10 11 12 13	53.8
2'F-ANA at 1 2 6 7 12	309
2'F-ANA at 1 6 7 12 13 14 15	80.9

Series 2
Substance: H2BC12L (Homo sapiens, UniProt P57053)
Technique: cross-linking MS
Notes: hits only
partner	interaction screen
H2BC18 (Homo sapiens, UniProt Q5QNW6)	cross-linked
H2BC5 (Homo sapiens, UniProt P58876)	cross-linked
H2AC6 (Homo sapiens, UniProt Q93077)	cross-linked

Series 3
Target: OGT, full length, His-tagged (human)
Technique: phage display, sequencing
Matrix: in vitro
Tested at: 1 µg OGT
Notes: single substitutions, 15-mer displayed peptide, unchanged parent 16.7
Reference: input library
Direction: higher = stronger binding
Parent: peptide; NSEYMPQYQIIFAHQ
Substitution	fold enrichment
Q15M	10.8 fold
Q7L	13.6 fold
Y8M	1.2 fold
I11D	7.62 fold
A13V	16.9 fold
E3S	17.1 fold
S2N	18.3 fold
N1D	17.2 fold

Further values, each from its own experiment
Parent: PafA, mature enzyme, eGFP fusion (Elizabethkingia meningoseptica, UniProt Q9KJX5); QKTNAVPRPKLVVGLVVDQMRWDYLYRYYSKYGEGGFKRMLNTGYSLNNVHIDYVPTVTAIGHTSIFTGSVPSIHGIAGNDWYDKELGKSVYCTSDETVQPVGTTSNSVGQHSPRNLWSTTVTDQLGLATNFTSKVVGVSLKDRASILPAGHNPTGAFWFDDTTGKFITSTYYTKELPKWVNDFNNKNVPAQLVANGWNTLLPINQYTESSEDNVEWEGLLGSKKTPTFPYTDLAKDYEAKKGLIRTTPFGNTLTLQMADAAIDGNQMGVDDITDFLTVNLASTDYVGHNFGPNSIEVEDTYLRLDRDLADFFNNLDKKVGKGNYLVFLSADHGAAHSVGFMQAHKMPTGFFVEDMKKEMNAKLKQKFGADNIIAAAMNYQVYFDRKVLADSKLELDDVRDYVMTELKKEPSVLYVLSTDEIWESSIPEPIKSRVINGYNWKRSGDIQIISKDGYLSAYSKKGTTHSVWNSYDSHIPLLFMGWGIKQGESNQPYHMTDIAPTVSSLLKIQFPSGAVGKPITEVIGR
Substitution	target	assay	test system	conditions	how to read	measurement	value
D183V	vanadate, free oxyanion	microfluidic competitive inhibition	in vitro, cell-free expressed	not given, derived from inhibition constants, unchanged parent 676 nM	lower = stronger binding	oxyanion analog dissociation constant	647 nM
